Experimental data of several laboratories.
Every numbered part comes from another study and shows a few of its results, in no order.

Set 1 — method: EMSA with sequencing; form: double-stranded DNA, one strand shown; matrix: in vitro; tested at: 10 and 20 nM; reference: negative control set to 0; reading: higher = stronger binding; quantity: normalised bound fraction
Target: Hepatocyte nuclear factor 3-alpha (Foxa1, Mus musculus, UniProt P35582, residues 1-468, full length assumed)
Sequence of UniProt P35582 (whole entry, looked up): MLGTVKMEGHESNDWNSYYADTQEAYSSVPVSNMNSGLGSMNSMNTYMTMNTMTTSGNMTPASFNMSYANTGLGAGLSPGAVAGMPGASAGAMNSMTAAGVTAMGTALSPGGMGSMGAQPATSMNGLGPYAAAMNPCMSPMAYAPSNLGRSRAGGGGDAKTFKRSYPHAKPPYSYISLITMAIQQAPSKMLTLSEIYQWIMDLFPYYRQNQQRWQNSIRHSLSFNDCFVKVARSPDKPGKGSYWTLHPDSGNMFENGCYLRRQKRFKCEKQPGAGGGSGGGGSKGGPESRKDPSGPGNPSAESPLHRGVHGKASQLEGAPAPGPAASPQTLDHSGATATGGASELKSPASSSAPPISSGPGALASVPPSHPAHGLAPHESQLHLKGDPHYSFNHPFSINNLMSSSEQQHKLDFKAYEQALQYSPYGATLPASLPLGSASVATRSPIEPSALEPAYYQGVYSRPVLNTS
Setting: whole designed probe, mean of two concentrations, ends assumed
Shared flanks, not repeated: GTGAGCGGTGCCCATTGATGGGGAAC … TTTCACTGGGATCGTGGGGAC
ATCTTCCCCCTCTTCCTTGCCCCACCAGCTCACCTTCCCGGGTTATTTGCACAAAGGAAAATAAATAAAGCCGGCATTCGTTAACGCAGTTCTGGCGCAAACTGCTGTTTGCTCTGCATGAATCATGGTCCTTACGCGAGGCGTGGCTCCGGGAGAGCAAAGCACCGTGTCAGGCGCATGATCCGGGCTCGCC: 0.385 ratio
GTTTCGAGATATGGCATAAACTTTCAAGCTGAGTAAATGGTAGAAAGGTTAGCCAAGTCAACTTGGGGGTCGAATTTTAAGGAAATCTCAAAGTAATCTAGCTAATCTATAGGAAGTGAGAGATAATTTTAGTATTGCTGAACTTTCACATTCTTGTAAATTCCACTGGAGCGCATGGCTTTGCAGGAGCAGT: -0.0888 ratio
CATTAGTTCATGCCAGGCAGGGTTTGACCAAAACCTTGGACTCACTCCTGTCTGCTTTCCTTCAGTGACTAAGAGGATTCCTGAGATGGATGTGCAATCTTGAAGAGATTACTTTCCTCCATGGGAATGTACTTCTGGCTTCCACTCCTCAGCTGCTGCTGCTAAGCCAGTGAGATAGATGGTGGTTTGGAAA: -0.0828 ratio
TTTTGGGGGGTGGGGTGGGTGAGTGGACACCAGAACCCAGACTTGAAACCTGTGCTTGATTGAGCACCCTCAGGGCAGCCGAGCCAGCACTGTGTTTACTCTTCCTCCCCCACCCACATCACAGCAAAGAAGCGCAACTTAACACATGACTGGCCTGCCCGGGGCGCGGGGCGGGCACGAAAAATGAAGCACT: 0.318 ratio
ATCTTCCCCCTCTTCCTTGCCCCACCAGCTCACCTTCCCGGGTTATTTGCAGATAGGAAAATAACTCGGTAACACGAATATTGACCCTCTTCTGGCGCAAACTGCTGTTTGCTCTGGATGAATCATGGTCCTTTGGCGACGCCAGGCTCCGGGAGAGCAAAGCACCGTGTCAGGGCCATGATCCGGGGTGGCC: 0.19 ratio
GTAGTTTCTGCTTTTCTACTTCCTGATAGACCGTTGGGCTTAAAAGGCCAATGAGCTGTCTAAGTTCTTGACTGAATTCTGTCCCAGTTTCCTGTTTACTTAGTAGACTTCTGAGTCCTTTGTAGCAGGCACTTTGTCTCAGTAAAATCAAAATTTCCTGATAGGATTCAGCCATCAACAGTAGGAGTTTTGC: 0.441 ratio

Set 2 — method: RNA Bind-n-Seq; form: RNA; matrix: in vitro; tested at: 200 nM; setting: whole 134-nt RNA, ends assumed; added: 150 mM KCl; reference: input library; reading: higher = stronger binding; quantity: log2 enrichment
Target: Fragile X messenger ribonucleoprotein 1, C-terminal low-complexity region (Fmr1, Mus musculus, UniProt P35922)
Shared flanks, not repeated: GGGAGUUCUACAGUCCGACGAUC … UGGAAUUCUCGGGUGUCAAGG
GUCCUGUGCUACACAUCGUAUGUACCGAAUCGGGGUUUUGGGGUUUUGGGUUUUGGGGAAAGUAUUAUGUUACGCCGUUCGGAUCUGCAC: 0.597
UGGGAGGUGGAUUUUGUUUAUUUUUUUAGCUCAUUUCCAGGGGUGGGAAUUUUUUUUUAAUAUGUGUCAUGAAUAAAGUUGUUUUUGAAG: 0.629
CCUGUGCUACACAUCGUAUGUACCGAAUCGGUUUUUUUGGGGUUUUUUUGGUUUUUUUGGAAAGUAUUAUGUUACGCCGUUCGGAUCUGC: -0.268
CUGUGCUACACAUCGUAUGUACCGAAUCGGGGAAAAAGGGGAAAAAAAGGGGUUUUUGGGGAAAGUAUUAUGUUACGCCGUUCGGAUCUG: -0.0143
UCAAGUCCUGUGCUACACAUCGUAUGUACCGAAUCGGUUGGGGUUGGGGUUGGGGAAAGUAUUAUGUUACGCCGUUCGGAUCUGCACUUC: 0.801
CCUGUGCUACACAUCGUAUGUACCGAAUCAAAUUUUUAAACCCCCCCAAAUUUUUUUAAAAAAGUAUUAUGUUACGCCGUUCGGAUCUGC: 0.277
UGGAGCACAGGGCGAGCUCUCCUCCGCCCUGCAGCCUCAGGUAAGGAUCCGGACCUUCACUGCUGCCCCAACUGGGGCUCCUCAGCUCGG: -0.188
CCUGUGCUACACAUCGUAUGUACCGAAUCGGGGAAAAAGGGGUUUGGGGUUUUUUUGGGGAAAGUAUUAUGUUACGCCGUUCGGAUCUGC: 0.421
AGUCCUGUGCUACACAUCGUAUGUACCGAAUCGGGUUUUUGGGUGGGUUUUUUUGGGAAAGUAUUAUGUUACGCCGUUCGGAUCUGCACU: 0.848
GCAGGAAGUAAAAACAAAUGGAAAUGCUUCGGAUAGUGGCAGGGGUGAGGGUUGCUAAGGAAAGGGUGGGAUGGGAGUGGGUAAAGAGUU: 0.256
GUCCUGUGCUACACAUCGUAUGUACCGAAUCGGGAAAAAAAGGGUUUUUGGGAAAGGGAAAGUAUUAUGUUACGCCGUUCGGAUCUGCAC: -0.408
AGUCCUGUGCUACACAUCGUAUGUACCGAAUCGGGCCCCGGGCCCCGGGGCCCCGGGGAAAGUAUUAUGUUACGCCGUUCGGAUCUGCAC: -1.21
UGCCGUGCCGGGUGGACGGUCUGCUCGCCUGUCUGCGUGACGAAACUGAGGCACAAAGACGCGCUAUGCCAGCGGCGGGUAUAGCAAGGG: -0.637
CUCAAGUCCUGUGCUACACAUCGUAUGUACCGAAUCGGGUGGGUUUGGGUGGGAAAGUAUUAUGUUACGCCGUUCGGAUCUGCACUUCCA: 1.22

Set 3 — method: RNA Bind-n-Seq; form: RNA; matrix: in vitro; tested at: not given; reference: input RNA pool; reading: higher = stronger binding; quantity: bound/input enrichment
Target: RING finger protein unkempt homolog, zinc fingers 1-6, GST-SBP tag (UNK, Homo sapiens, UniProt Q9C0B0, residues 30-357)
Sequence of UniProt Q9C0B0 (30-357, looked up): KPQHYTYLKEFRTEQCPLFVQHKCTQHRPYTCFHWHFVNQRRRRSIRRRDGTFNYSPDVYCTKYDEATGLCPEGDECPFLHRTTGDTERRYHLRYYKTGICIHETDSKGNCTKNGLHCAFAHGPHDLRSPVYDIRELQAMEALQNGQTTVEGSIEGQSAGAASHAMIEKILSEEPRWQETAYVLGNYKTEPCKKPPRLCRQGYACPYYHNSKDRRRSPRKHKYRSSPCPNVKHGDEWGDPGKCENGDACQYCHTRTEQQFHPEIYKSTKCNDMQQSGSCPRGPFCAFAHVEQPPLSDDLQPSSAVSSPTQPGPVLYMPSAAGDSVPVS
Setting: RNA with constant flanks, human and mouse sites, ends assumed
Shared flanks, not repeated: GGGAGUUCUACAGUCCGACGAUC … CAACAGAGGAUUGAGCAUCA
GAAAACACAGCACUUAGGUUGGCUUAGCUGCAGCCUCCUCAGAGGUCAGAUUAUUUAUUUAAAAUUACUGGUUGCAUCAAGAACCCAUAGGGUGUACAAACGGUUCUAUACAAUCUGCAU: 1.81 ratio
CUCUUUUUUUUCCACGGGGCUGUUUUUUUAAUUUGGCUGCAAUUGCAUGAAAUCCCAAUGGUGUAGACCAGUGGCGAUGGAUCUAGGAGUUUACCAACUGAGACAUUUUUCCAUUUCUUU: 0.934 ratio
GCUUUCAGCCCGUGUAAAUAUUUAAAUAAAACAGUAUUAACAUUUUUGUGCUGCUUCUCGUUAGGUUGUAGAUCUAGCCAUGCUCUGGCCGCCUCUGCCAUCCUGGAGGUAGUUUUCCUU: 0.173 ratio
UGGCUUACCAACUAUUAAACAUUCUACCCUAUAGUAGCUUACAGCAGCUGAGUUUCAUGAUAUAGUCCUCACCGUCAUUAAAAUGUUCCUGUUCCCUUUUCACAACUUUUAGAUAAAAGG: 1.36 ratio
ACCCUGGACUGUGAGCCCAAGUGUGUGGAAGAGUUACCUGAGUGGAACUUUGAUGGCUCUAGUACCUUUCAGUCUGAAGGCUCCAACAGCGACAUGUACCUCCAUCCUGUUGCCAUGUUU: 0.198 ratio
UGAAACAGGGAGAGGCUGACACCCCCCCACCCUCCACCCCCGUGUCCACAACCCCCAACCUAGCUGUCUUCUCAGGGCCUGCCACCCAAAUAAGUCUGGCCCUAGCCUCAACUCUCUCUC: 1.32 ratio
GGAGCAGAUGCUGAUCUCAUUAUGCUUGGCCUUGCCACACAUGAACCGAACUUUACCAUUAUUAGAGAAGAAUUCAAACCAAACAAGCCCAAACCAUGUGGUCUUUGUAAUCAGUUUGGA: 1.13 ratio
GGAAGGGUGGUAUGUGUUUUCAUCUUUGGAAGAGAAAAUUAAAUUGGAAUUAUUUUCUAGAAAUUUUGAGAAGUCCACUCAAUUUUCCUGGGAGAGAGUGCUCACUGUGUGAAAGUACAU: 0.456 ratio

Set 4 — method: protein-binding microarray; form: double-stranded DNA, one strand shown; matrix: in vitro; tested at: 2540 nM top; setting: 60-bp whole probe; added: salmon DNA 0.4 mg/ml; reference: random background probes; reading: higher = stronger binding; quantity: fitted relative affinity; shared flanks, not repeated: GCCTAGCAC … GTCTTGATTCGCTTGACGCTGCTG
Target: Interferon regulatory factor 3, full length, phosphomimetic (IRF3, Homo sapiens, UniProt Q14653, residues 1-427, S386D/S396D/S398D/S402D/T404D/S405D)
Construct (chain): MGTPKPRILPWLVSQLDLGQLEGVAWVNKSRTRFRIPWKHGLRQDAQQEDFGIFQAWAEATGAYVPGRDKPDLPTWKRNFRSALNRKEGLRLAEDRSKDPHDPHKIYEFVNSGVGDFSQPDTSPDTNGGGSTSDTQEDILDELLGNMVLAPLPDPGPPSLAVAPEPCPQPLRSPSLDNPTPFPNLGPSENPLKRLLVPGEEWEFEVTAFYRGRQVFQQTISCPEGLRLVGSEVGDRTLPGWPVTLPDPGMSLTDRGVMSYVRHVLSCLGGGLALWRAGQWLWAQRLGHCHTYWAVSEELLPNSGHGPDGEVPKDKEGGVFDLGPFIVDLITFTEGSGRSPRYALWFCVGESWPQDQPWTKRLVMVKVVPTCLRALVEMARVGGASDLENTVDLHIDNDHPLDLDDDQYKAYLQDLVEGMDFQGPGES
GAGATTTCCATTATTGCTTCGTGCTAG: 2.73 z-score
TGAGGTATCGACTTTCGGTTAGTGCTA: 1.8 z-score
GACGGACTGGAATATCGGGACGTGCTA: -0.293 z-score
AGATCCATGCTCTGTCGCAGGGTGCTA: 0.447 z-score
GACCATTTCAGTTTCGAGACGTGCTAG: 4.4 z-score
TTAGGTTCCCTTTGCCTTTAGTGCTAG: 4.85 z-score
TTCCAAATGCCCTCTCCATACGTGCTA: 0.805 z-score
GACGGTTTCGGACTGGGGGCGTGCTAG: 4.68 z-score
TTAGGTTCCGGGTTTCGGTTAGTGCTA: 3.75 z-score
TCAATTCCCTTTCTCAAACTGTGCTAG: 5.16 z-score
TTAGGTTTAGGGACTGGGTTAGTGCTA: -0.582 z-score
GACGGTATCGACTTTCGGGACGTGCTA: 1.39 z-score
GACGATTTCGGGTTTCGAGATGTGCTA: 2.88 z-score
GGGCCACAAAGCAATAAGAAGTGCTAG: -0.618 z-score
GACGATTTCGGGTAGCGAGACGTGCTA: 1.32 z-score
GACGGTCTCGGTCTCGGGAGGTGCTAG: 1.44 z-score
TCAGTTTTCTCTATTGCACTGTGCTAG: 1.99 z-score

Set 5 — method: protein-binding microarray; form: hairpin DNA; matrix: in vitro; tested at: not given; reference: not given; reading: higher = stronger binding; quantity: median fluorescence
Target: Runt-related transcription factor 1, full length (RUNX1, Homo sapiens, UniProt Q01196-8, residues 1-480)
Setting: whole hairpin DNA, median over replicate spots
CTCAGTTCTCGGGGCTGGACTCCTGTCCAGCCCCGAGAACTGAGACACTC (5mC at 10): 1770 a.u.
CTCAGTTCTGTGGGGTGGACTCCTGTCCACCCCACAGAACTGAGACACTC (5mC at 30): 1880 a.u.
GAGGCCCAACCGCACCAGCCTCCTGGCTGGTGCGGTTGGGCCTCACACTC: 3390 a.u.
GAGGCCCGTTGTGGTTGGCCTCCTGGCCAACCACAACGGGCCTCACACTC (5mC at 7 37): 3090 a.u.
GAGGCCCAACCGCAACCGCCTCCTGGCGGTTGCGGTTGGGCCTCACACTC (5mC at 17): 6480 a.u.
GAGGCCTGTCGCGGTTGGCCTCCTGGCCAACCGCGACAGGCCTCACACTC (5mC at 41): 2700 a.u.
GAGGCCTGTTGCGGTTGGCCTCCTGGCCAACCGCAACAGGCCTCACACTC (5mC at 34): 6860 a.u.
CTCAGTTCTGTCGGCTGGACTCCTGTCCAGCCGACAGAACTGAGACACTC: 1860 a.u.
GAGGCCCGTTGTGGTTGGCCTCCTGGCCAACCACAACGGGCCTCACACTC: 3230 a.u.
GAGGCCTGTTGCGGTTCGCCTCCTGGCGAACCGCAACAGGCCTCACACTC (5mC at 17): 3590 a.u.
GAGGCCTGTTGTGGATGGCCTCCTGGCCATCCACAACAGGCCTCACACTC: 1750 a.u.
CTCAGTTCTGTGGCCTGGACTCCTGTCCAGGCCACAGAACTGAGACACTC (5mC at 14): 1890 a.u.

For quick reference, copied from above (set 5):
CTCAGTTCTGTGGGGTGGACTCCTGTCCACCCCACAGAACTGAGACACTC (5mC at 30): 1880 a.u.
GAGGCCCAACCGCACCAGCCTCCTGGCTGGTGCGGTTGGGCCTCACACTC: 3390 a.u.
GAGGCCCGTTGTGGTTGGCCTCCTGGCCAACCACAACGGGCCTCACACTC (5mC at 7 37): 3090 a.u.
GAGGCCCAACCGCAACCGCCTCCTGGCGGTTGCGGTTGGGCCTCACACTC (5mC at 17): 6480 a.u.
GAGGCCTGTCGCGGTTGGCCTCCTGGCCAACCGCGACAGGCCTCACACTC (5mC at 41): 2700 a.u.
GAGGCCTGTTGCGGTTGGCCTCCTGGCCAACCGCAACAGGCCTCACACTC (5mC at 34): 6860 a.u.
CTCAGTTCTGTCGGCTGGACTCCTGTCCAGCCGACAGAACTGAGACACTC: 1860 a.u.
GAGGCCCGTTGTGGTTGGCCTCCTGGCCAACCACAACGGGCCTCACACTC: 3230 a.u.
GAGGCCTGTTGCGGTTCGCCTCCTGGCGAACCGCAACAGGCCTCACACTC (5mC at 17): 3590 a.u.
